Measurements of several laboratories.
Numbered parts are unrelated; each lists some results of a single study. Changes are numbered by the printed parent chain.

Sample 1 — technique: DHFR PCA, deep sequencing; matrix: yeast; with: (+)-ABA 17 µM; reference: wild-type fitted maximum; direction: higher = stronger binding; endpoint: relative binding score
Target: ABI1, truncated, D143A, DHFR fusion (Arabidopsis thaliana)
Setting: methotrexate growth selection, single substitutions
Parent: PYL1, truncated, DHFR fusion (Arabidopsis thaliana); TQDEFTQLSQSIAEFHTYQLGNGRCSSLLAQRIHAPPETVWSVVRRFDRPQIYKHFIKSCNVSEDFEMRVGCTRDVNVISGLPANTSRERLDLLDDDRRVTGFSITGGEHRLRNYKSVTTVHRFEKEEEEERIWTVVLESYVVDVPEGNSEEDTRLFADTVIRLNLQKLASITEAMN
T135Q: 29.4%
S9L: 62.3%
E139T: 88.3%
Y53G: -3.26%
E64R: 81.9%
T39Y: 69%
R123P: 81.4%
E89G: 7.14%

Sample 2 — technique: RNA Bind-n-Seq; form: RNA; matrix: in vitro; tested at: 365 nM; reference: no-protein control; direction: higher = stronger binding; endpoint: RBNS enrichment (R)
Target: RNA binding protein fox-1 homolog 2, RRM domain, GST-SBP tag (RBFOX2, Homo sapiens, UniProt O43251-10, residues 100-194)
Setting: natural RNA segment, single round, ends assumed
Construct (chain): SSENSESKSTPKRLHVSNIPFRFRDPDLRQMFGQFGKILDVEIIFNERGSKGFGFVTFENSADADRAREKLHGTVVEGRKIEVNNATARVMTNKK
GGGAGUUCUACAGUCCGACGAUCCUGUGCCUUGUGUUACUUAAUCAUACAGUAAGCUGACCUGGAAAUGAAUGAAACUAUUACUCCUAAGAAUUACAUUGUAUAGCCCCACAGAUUAAAUUUAAUUAAUUAAUUGGAAUUCUCGGGUGCCAA: 0.65
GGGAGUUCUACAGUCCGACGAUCUGGUCUGAGAGGGAGAAGCCUGGAUGUAGGAAAACCCGUUUCCACCCCAGGCCCUACUCCCUAGCCUUUUCCAAGUGGGACAUGGAAGAGGCAGCCUGCUGCCUGGAUGCUGGAAUUCUCGGGUGCCAA: 0.687
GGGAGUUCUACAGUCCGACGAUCCCAAAGACCCUCCAUCACGAAGAGCACUUUACAGAUAAGAAUCUUCCUCCCCAGUUCUUCAUGCCUCCUUCCUGCCCUUUCCUUACUUUGUGUUGGAUUUGUUUUCCAAAUGGAAUUCUCGGGUGCCAA: 1.17
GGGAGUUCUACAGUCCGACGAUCUUUUCUACAGAAGUCCAGCCCAGAGUCCCCACUUUGCUAGUGCUGCCUGGCUGCCACCGCCUAACGCUCUGAACCACCACCCCAGGUUUAUGUAUAUAUAAAUACUUUAUUGGAAUUCUCGGGUGCCAA: 0.632
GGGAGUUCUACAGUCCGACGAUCACUGUGUCCUUGGUGUUGGUUCUGAUUAAGACUCACUGAGAUCCAGUGCUCUUGAGCUGGGUCUCAGUCCCCUCCCAUGUCCUGUGCUCUGCCGCCACUGUUUUCAUUGUUGGAAUUCUCGGGUGCCAA: 0.482
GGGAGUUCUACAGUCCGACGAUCCAGACAAUAAUUUGAAGCGUCUGUAUUCAGCAAAGAUAAAUACAGCAGUCCAGUCUAUAGGUGCUCUACUUAGCAUUCUUUUCAUGUGCUCCUGGUCUCUGUCUCACUCAUGGAAUUCUCGGGUGCCAA: 0.272
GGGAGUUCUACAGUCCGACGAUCCUGCUUAGUAGCCUUGAAGCAGCACAUCUCCACUGUCCCUGGCAGGAUUGUGGGAGGCUUCACAACCCCUGCUUUCCUGACUUCCUCUUCUGCCCAACACUGGGUGCCCCUGGAAUUCUCGGGUGCCAA: 0.564
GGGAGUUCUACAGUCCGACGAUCCAACAUAUAGAAAAAUGUAUAGAUGCUUGGACAGACCCGGUAAUGGGUGGCCAUUGGUAAAUGUUAGGAACACACCAGGUCACCUGACAUCCCAAGAAUGCUCACAAACCUGGAAUUCUCGGGUGCCAA: 0.378

Sample 3 — target: Sox-I, HMG box (Salpingoeca helianthica); technique: Spec-seq; form: double-stranded DNA, one strand shown; matrix: in vitro; tested at: not given; setting: whole probe, mean of replicates; reference: not given; direction: lower = stronger binding; endpoint: relative binding energy; all sequences stand within: GAGTCGTCTCGTCAGCAC … CCGTAGAGCACTCAGGTC
Construct (chain): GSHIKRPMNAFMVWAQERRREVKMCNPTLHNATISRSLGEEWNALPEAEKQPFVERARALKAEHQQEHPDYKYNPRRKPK
GATAGTT: 0.164 ln ratio
AGAGGTT: 0.249 ln ratio
CATATGT: 0.557 ln ratio
TGGCGTT: 0.855 ln ratio
CATTGGC: 1.02 ln ratio
GTCTGTT: -0.076 ln ratio
CATACTA: -0.0255 ln ratio
AGCTGTT: -0.877 ln ratio

Mixed results — parent: viral docking peptide; TSVRRALFTGGSD
TSVRRALFRGGSD [T9R]
normalised enrichment score (CCNE2, cyclin fold, Cln2 fusion (human); yeast growth competition, sequencing; yeast; strong parent motif; reference: not given, higher = stronger binding): 3.27

Repeated from above (sample 1):
E64R: 81.9%
Y53G: -3.26%
E89G: 7.14%
S9L: 62.3%
